{"data": "Measurements pooled from the literature", "note": "Each numbered part is a random draw from the data of one study; scales do not carry over between parts. Values joined by “and” are separate records of one study, mostly repeats; a detail may differ.", "UniProt Q2M2I8, sequence (whole entry, looked up)": "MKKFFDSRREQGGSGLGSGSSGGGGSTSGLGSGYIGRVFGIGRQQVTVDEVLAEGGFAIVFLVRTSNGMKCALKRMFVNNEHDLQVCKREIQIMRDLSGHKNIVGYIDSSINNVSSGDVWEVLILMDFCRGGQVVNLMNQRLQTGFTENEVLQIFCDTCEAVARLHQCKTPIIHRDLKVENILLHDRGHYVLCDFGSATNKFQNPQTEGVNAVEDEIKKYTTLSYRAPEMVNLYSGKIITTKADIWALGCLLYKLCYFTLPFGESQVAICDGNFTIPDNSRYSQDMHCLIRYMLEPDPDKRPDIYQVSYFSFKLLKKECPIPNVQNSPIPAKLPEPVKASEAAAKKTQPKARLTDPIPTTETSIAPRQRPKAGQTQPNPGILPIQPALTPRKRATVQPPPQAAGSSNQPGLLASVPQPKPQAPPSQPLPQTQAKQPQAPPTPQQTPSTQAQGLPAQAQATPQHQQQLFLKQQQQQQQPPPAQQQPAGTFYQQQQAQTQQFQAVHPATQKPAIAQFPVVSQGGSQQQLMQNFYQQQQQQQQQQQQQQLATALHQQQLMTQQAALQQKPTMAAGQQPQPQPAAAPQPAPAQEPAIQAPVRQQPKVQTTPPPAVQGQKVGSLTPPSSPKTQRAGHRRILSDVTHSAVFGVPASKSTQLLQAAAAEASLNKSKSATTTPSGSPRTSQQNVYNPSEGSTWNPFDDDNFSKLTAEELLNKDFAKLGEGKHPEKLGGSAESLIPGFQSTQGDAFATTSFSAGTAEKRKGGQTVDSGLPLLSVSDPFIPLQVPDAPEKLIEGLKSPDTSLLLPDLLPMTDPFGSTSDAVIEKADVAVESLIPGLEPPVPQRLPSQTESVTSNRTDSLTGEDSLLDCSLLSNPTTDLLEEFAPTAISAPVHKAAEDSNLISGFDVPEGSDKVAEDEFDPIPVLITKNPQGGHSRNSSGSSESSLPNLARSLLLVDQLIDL", "UniProt Q9NWZ3, sequence (whole entry, looked up)": "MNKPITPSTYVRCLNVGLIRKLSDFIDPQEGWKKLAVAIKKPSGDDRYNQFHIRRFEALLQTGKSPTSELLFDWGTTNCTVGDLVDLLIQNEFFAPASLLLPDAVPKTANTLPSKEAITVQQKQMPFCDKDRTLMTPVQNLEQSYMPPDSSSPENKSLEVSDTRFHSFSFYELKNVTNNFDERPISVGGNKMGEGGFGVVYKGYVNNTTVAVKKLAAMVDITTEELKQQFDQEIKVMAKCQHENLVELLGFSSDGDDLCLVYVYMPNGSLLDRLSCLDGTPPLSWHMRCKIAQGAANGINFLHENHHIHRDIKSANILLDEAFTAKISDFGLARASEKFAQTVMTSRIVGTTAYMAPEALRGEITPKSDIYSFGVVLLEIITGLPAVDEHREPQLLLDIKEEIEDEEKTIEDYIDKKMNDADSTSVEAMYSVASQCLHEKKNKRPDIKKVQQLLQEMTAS", "UniProt P68400, sequence (whole entry, looked up)": "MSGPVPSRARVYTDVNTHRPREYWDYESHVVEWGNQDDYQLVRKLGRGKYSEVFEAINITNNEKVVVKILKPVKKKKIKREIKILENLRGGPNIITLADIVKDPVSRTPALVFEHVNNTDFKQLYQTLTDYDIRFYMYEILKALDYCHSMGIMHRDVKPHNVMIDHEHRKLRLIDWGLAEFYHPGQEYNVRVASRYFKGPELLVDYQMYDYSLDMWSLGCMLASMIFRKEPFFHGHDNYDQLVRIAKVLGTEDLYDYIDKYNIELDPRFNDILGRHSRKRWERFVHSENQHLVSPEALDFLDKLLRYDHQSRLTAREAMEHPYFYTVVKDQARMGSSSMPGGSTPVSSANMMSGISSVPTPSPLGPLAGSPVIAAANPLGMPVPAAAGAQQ", "UniProt P41743, sequence (whole entry, looked up)": "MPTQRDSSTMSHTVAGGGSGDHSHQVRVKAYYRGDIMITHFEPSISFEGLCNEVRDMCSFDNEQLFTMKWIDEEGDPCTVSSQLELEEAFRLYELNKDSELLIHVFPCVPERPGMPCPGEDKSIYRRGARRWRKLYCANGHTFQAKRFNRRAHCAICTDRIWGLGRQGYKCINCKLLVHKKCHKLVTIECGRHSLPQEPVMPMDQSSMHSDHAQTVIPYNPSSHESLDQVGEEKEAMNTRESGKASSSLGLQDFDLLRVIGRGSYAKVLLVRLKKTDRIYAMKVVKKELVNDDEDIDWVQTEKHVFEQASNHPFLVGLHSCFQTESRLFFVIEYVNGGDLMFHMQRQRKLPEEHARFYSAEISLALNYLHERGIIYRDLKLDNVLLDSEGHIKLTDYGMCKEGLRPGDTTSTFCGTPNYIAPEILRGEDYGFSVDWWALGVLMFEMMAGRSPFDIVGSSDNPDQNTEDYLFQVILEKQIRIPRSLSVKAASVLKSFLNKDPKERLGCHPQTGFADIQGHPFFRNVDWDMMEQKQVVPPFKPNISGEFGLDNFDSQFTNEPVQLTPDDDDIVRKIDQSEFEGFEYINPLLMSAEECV", "UniProt Q9NYY3, sequence (whole entry, looked up)": "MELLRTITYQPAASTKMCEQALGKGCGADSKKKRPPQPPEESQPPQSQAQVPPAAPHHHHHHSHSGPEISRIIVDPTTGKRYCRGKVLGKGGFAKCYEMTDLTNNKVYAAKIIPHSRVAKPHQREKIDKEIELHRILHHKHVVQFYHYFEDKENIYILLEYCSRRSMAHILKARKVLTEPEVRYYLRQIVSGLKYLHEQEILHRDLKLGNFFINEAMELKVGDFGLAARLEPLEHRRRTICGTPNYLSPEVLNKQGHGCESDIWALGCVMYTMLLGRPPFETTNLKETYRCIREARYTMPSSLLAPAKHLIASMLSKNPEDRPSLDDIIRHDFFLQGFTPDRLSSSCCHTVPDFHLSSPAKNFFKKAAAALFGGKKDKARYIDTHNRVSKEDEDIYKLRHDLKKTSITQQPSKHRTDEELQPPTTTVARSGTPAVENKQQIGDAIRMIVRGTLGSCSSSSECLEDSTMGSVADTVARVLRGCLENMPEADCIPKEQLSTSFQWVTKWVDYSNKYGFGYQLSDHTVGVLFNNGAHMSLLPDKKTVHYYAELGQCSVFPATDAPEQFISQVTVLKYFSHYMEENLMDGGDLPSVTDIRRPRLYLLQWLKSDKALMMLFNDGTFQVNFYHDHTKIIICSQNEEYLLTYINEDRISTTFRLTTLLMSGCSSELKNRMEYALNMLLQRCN", "UniProt Q06187, sequence (whole entry, looked up)": "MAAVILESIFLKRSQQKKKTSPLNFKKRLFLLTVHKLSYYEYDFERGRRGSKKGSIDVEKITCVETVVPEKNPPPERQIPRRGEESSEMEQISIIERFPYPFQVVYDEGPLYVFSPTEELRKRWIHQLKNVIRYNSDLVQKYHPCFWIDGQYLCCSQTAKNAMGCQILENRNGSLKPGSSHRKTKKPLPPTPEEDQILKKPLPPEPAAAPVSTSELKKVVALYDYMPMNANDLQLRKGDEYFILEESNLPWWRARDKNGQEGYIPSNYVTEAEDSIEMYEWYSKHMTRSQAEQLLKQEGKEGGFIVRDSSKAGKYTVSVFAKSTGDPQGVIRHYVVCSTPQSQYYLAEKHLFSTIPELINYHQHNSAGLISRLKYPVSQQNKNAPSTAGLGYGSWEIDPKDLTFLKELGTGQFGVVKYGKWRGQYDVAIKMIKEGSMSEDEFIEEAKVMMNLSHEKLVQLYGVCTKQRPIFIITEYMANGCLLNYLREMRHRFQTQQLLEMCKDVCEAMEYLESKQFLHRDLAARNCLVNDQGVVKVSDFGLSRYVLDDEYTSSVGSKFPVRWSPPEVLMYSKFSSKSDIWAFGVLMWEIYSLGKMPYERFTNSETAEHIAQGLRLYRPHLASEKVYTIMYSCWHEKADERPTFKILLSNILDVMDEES", "UniProt Q9Y243, sequence (whole entry, looked up)": "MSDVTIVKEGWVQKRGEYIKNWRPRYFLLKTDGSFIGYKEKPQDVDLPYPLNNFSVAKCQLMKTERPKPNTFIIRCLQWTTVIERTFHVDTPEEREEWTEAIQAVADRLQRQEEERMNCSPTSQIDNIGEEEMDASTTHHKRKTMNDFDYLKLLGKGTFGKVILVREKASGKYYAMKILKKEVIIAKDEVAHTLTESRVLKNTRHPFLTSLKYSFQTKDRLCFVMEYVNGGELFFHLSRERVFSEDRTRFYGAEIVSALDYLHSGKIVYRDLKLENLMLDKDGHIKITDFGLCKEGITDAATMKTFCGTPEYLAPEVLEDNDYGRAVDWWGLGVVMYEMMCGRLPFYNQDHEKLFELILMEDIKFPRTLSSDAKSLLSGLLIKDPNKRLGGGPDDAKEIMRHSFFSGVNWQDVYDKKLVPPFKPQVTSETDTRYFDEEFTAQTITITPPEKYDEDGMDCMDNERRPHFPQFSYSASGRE", "UniProt Q15208, sequence (whole entry, looked up)": "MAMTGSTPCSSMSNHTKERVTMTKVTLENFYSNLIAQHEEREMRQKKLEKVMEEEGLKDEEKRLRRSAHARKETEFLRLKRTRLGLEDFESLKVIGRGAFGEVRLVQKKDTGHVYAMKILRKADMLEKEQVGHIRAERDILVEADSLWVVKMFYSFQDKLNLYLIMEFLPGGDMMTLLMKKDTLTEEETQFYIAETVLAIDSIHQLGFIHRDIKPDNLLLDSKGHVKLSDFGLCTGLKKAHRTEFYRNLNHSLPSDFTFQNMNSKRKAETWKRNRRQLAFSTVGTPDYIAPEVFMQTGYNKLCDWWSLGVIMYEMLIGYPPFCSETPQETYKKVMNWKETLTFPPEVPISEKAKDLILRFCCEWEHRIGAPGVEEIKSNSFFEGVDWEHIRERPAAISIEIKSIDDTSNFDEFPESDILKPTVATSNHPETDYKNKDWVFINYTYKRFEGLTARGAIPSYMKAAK"}
{"data": "Series 1", "cell line": "HaCaT", "concentration": "100 µM", "time": "36 h"}
{"SMILES": "CC(C)NCC(O)c1ccc(NS(C)(=O)=O)cc1 (stereo not shown)", "viability": "90.3%"}
{"SMILES": "CCN(CC)CCOC(=O)c1ccc(N)cc1", "viability": "90.5%"}
{"SMILES": "Cn1nnc2c(C(N)=O)ncn2c1=O", "viability": "114%"}
{"SMILES": "COc1ccc([C@@H]2CC(=O)c3c(O)cc(O[C@@H]4O[C@H](CO[C@@H]5O[C@@H](C)[C@H](O)[C@@H](O)[C@H]5O)[C@@H](O)[C@H](O)[C@H]4O)cc3O2)cc1O", "viability": "83.3%"}
{"SMILES": "COc1ccc(C(C)=O)c(O)c1", "viability": "79.2%"}
{"SMILES": "CC(N)CCCC(C)(C)O (stereo not shown)", "viability": "84.3%"}
{"SMILES": "CC(=O)N[C@H]1[C@H]([C@H](O)[C@H](O)CO)OC(C(=O)O)=C[C@@H]1N=C(N)N", "viability": "79.1%"}
{"data": "Series 2", "SMILES": "CO[C@H]1C[C@@H]2CC[C@@H](C)[C@@](O)(O2)C(=O)C(=O)N2CCCC[C@H]2C(=O)O[C@H]([C@H](C)C[C@@H]2CC[C@@H](O)[C@H](OC)C2)CC(=O)[C@H](C)/C=C(\\C)[C@@H](O)[C@@H](OC)C(=O)[C@H](C)C[C@H](C)/C=C/C=C/C=C/1C", "observed": "enzyme activity", "mode": "inhibitor", "concentration": "0.5 µM", "reference": "control"}
{"target": "Serine/threonine-protein kinase PLK2 (PLK2, Homo sapiens, UniProt Q9NYY3)", "remaining activity [%]": 105}
{"target": "RAC-gamma serine/threonine-protein kinase (AKT3, Homo sapiens, UniProt Q9Y243)", "remaining activity [%]": 97.8}
{"target": "Serine/threonine-protein kinase 38 (STK38, Homo sapiens, UniProt Q15208)", "remaining activity [%]": 92.8}
{"target": "Cyclin-dependent kinase 9, with cyclin T1 (CDK9, Homo sapiens, UniProt P50750)", "remaining activity [%]": 87}
{"target": "Casein kinase II subunit alpha (CSNK2A1, Homo sapiens, UniProt P68400)", "remaining activity [%]": 94.7}
{"target": "Protein kinase C iota type (PRKCI, Homo sapiens, UniProt P41743)", "remaining activity [%]": 99.1}
{"target": "Dual specificity mitogen-activated protein kinase kinase 6 (MAP2K6, Homo sapiens, UniProt P52564)", "remaining activity [%]": 107}
{"target": "Interleukin-1 receptor-associated kinase 4 (IRAK4, Homo sapiens, UniProt Q9NWZ3)", "remaining activity [%]": 123}
{"target": "Mitogen-activated protein kinase 13 (MAPK13, Homo sapiens, UniProt O15264)", "remaining activity [%]": 121}
{"target": "Tyrosine-protein kinase BTK (BTK, Homo sapiens, UniProt Q06187)", "remaining activity [%]": 101}
{"data": "Series 3", "Structure (SMILES)": "CCOc1ccc(Nc2c3c(nc4ccccc24)CCC3)cc1", "organism": "Leishmania donovani", "observed": "parasite killing", "strain": "DD8"}
{"system": "promastigotes", "conditions": "3.33 µM, 24 h", "inhibition": "43% and 40% and 48%"}
{"system": "intracellular amastigotes", "conditions": "8 µM, 96 h", "inhibition": "100%"}
{"system": "intracellular amastigotes", "conditions": "8 µM, 72 h", "inhibition": "100%"}
{"system": "promastigotes", "conditions": "33.33 µM, 24 h", "inhibition": "98% and 99%"}
{"system": "intracellular amastigotes", "conditions": "80 µM, 72 h", "inhibition": "100%"}
{"system": "intracellular amastigotes", "conditions": "80 µM, 48 h", "inhibition": "100%"}
{"system": "promastigotes", "conditions": "66.66 µM, 96 h", "inhibition": "100%"}
{"data": "Mixed results"}
{"SMILES": "O=C(Nc1cccnn1)N1CC(CC=Cc2cncc(Oc3ccc(C(F)(F)F)cn3)n2)C1", "target": "AP2-associated protein kinase 1 (AAK1, Homo sapiens, UniProt Q2M2I8)", "assay": "KINOMEscan", "conditions": "1 µM", "scale": "reference: control", "measurement": "remaining binding", "value": "100%"}
